Published values gathered from unrelated publications.
Every numbered part comes from another study and shows a few of its results, in no order. Positions count from the first letter of the parent shown.

Series 1
Target: Interferon regulatory factor 7, full length, phosphomimetic (IRF7, Homo sapiens, UniProt Q92985, residues 1-503, S471D/S472D/S475D/S476D/S477D/S483D/S484D/S487D)
Chain of UniProt Q92985 (whole entry, unmodified, looked up): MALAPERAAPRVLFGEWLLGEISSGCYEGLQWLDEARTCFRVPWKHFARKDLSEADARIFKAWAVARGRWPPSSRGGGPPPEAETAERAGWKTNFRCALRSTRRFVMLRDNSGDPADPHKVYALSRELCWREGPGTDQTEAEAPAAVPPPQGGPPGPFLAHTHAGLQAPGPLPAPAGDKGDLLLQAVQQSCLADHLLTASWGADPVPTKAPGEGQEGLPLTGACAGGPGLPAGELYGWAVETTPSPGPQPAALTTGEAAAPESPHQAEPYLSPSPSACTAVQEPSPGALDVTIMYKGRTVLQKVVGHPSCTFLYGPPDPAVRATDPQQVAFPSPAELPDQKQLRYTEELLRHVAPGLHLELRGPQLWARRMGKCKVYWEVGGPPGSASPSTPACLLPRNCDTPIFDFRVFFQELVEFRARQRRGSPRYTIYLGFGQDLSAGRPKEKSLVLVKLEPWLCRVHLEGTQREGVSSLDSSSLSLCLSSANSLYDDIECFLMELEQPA
Technique: protein-binding microarray
Form: double-stranded DNA, one strand shown
Matrix: in vitro
Tested at: 2200 nM top
Notes: 60-bp whole probe
With: salmon DNA 0.4 mg/ml
Baseline: random background probes
Reading: higher = stronger binding
Measurement: fitted relative affinity
Shared flanks, not repeated: GCCTAGCAC … GTCTTGATTCGCTTGACGCTGCTG
GACAGTATCGGTTTCGGGACGTGCTAG: 4.74 z-score
TCATATTTAAGCTCCTATACTGTGCTA: 0.698 z-score
GACGATTTCAGCTCCGAGACGTGCTAG: 0.609 z-score
GACGAACTGAGTCTCGCGACGTGCTAG: -0.0511 z-score
TTAGTTTTCCTTTTCCTTTAGTGCTAG: 9.36 z-score
TCACTTCTGGTGCTCATCTGGTGCTAG: 1.41 z-score
TTAAGACTGGACTTTCGGTTAGTGCTA: 5.15 z-score
CATTATTTCAATGCAAGGTGGTGCTAG: 0.44 z-score
TTAGGACTGGGGTATCGGTTAGTGCTA: -0.367 z-score
GACCGACTGGGGTTTCGGGACGTGCTA: 0.94 z-score
TACGGTATCGGTTTCGGGACGTGCTAG: 4.33 z-score
GACGAACTTGGGTTTCGAGACGTGCTA: 1.19 z-score
GACGGTTTCGGTCCCGGGACGTGCTAG: 5.43 z-score
TTTTCTTTTCATTACTGCATGTGCTAG: 7.55 z-score
TCAAGTCCCGAGAATGGTACTGTGCTA: -0.219 z-score
GACGGTCTCGGACTGGGGGCGTGCTAG: -0.00917 z-score
GACCGTTTCCTTATCCTGACGTGCTAG: 3.14 z-score
GACGGACTGGGGACTGGGGAAGTGCTA: -0.593 z-score
TTAGATTCCAGTTTCGATGAGTGCTAG: 3.01 z-score
CCAGTGCTGCTTTGTCAAGAGTGCTAG: -0.246 z-score
TTAGATTTCGGGTATGGATTAGTGCTA: 2.46 z-score

Series 2
Target: RNA binding protein fox-1 homolog 2, RRM domain, GST-SBP tag (RBFOX2, Homo sapiens, UniProt O43251-10, residues 100-194)
Technique: RNA Bind-n-Seq
Form: RNA
Matrix: in vitro
Tested at: 365 nM
Notes: natural RNA segment, single round, ends assumed
Baseline: no-protein control
Reading: higher = stronger binding
Measurement: RBNS enrichment (R)
Construct (chain): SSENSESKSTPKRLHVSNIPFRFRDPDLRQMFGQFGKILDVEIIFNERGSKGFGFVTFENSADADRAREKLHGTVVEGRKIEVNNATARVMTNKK
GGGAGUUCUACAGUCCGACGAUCCCAAAGAACCUGGCAAAAGAAGUGGCCAUGUGAAGAGGGACACUCAGGACACUUUACGGGAUCAAAGUGGGUCUACACCAGUGCUGCUUCCUGAAUGUUUGUGUGUGAACUGGAAUUCUCGGGUGCCAA: 2.41
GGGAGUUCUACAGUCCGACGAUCGGCUUCCAUUUGGAUGGGCCUGCCUUAACAUUGUUUGAAAUGCAGCGUGAGUAGCUCUUUUGUUUACUGUUUACACCCCUUAUUGGCAUGUCAACUCCUGUACUUCCCUUUGGAAUUCUCGGGUGCCAA: 0.369
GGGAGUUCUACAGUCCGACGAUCACAUUCCUGGACACCCUCACCACCCCGCAGUGAUGAUGCAUGGAGGACAGCCCCACCCUGGAAUGCCAAUGUCAGCCUCAAGCCCCUCGGUUCUUAACACAGGAGACCCGUGGAAUUCUCGGGUGCCAA: 4
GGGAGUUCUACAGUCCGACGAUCCAACAGAGGAUCGUUGAGAUUGAGCAGCGCUUGGUGAUCUCUCAGCAAACAACCCCUGCCCGUGGGCCAAUCUACUUGAAGUUACUCGGACAAAGACCCCAAAGUGGGGCUGGAAUUCUCGGGUGCCAA: 0.581
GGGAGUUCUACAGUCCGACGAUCAGUAUUUUCUGAAGACGCAUAUGGCAGACGGAUUUGCGUAUACCAAGGAGAGUGGCAUAGGAGGGAAAAGCAUAUGUGGCUGAAACCUGUAAGUUGGUGUUGGUUAUGCAUGGAAUUCUCGGGUGCCAA: 1.39
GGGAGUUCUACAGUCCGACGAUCGCCUCGCCACUGAGAUACUAACUAGACCUAGACUAGGAGCUUUAUCAGGUUCUAGGAGGUCCUUUAGGAAGACUCUCAAAGGCAAAUCCCUGAUCCCCCGCCCCACCCUUUGGAAUUCUCGGGUGCCAA: 0.318
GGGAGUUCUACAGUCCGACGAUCUUUCGAAAUUGUAUCCUUCUGACUCUGCUUCCUGGGUGCUGAAAUUAAAGGCAUGUGCCACUAUGCAAGUUUAUGUGGUGCUGGGCACAGAACCCAGGGCUUAAUGCGUGUGGAAUUCUCGGGUGCCAA: 4.4
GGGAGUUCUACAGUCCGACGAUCUUUUUCUAAUGUAUUUAUAAAAGAUCUUUUCCCAUUUAUGCUGGGAAAGUGUUUUUCAAACUCAGUGACAAGGACUUUGGUUUUUGUAAGACUGUUGAUGAUAUGAAGGCUGGAAUUCUCGGGUGCCAA: 0.273
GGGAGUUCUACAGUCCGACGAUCCUGCACUAAUUCCCUUCUUCCUCUAGCAGACUGCCUUGGGAAGGACCUUCAGUCCAGGACAGACCCUGUCAUGGCUUCUUGCUGUCUUACCCUUCUCACUCACCAGGCCCUGGAAUUCUCGGGUGCCAA: 0.6
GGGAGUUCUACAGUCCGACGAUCUUUGUGUACAAAAGGCAGGAAAAAGUAUUUGAUACCACUGUACAUAAGAGUUUUCAGAGAUUUCAUAUAUAUUAUAUAUCUUUUACAGAGACUAUUUUAAUCCUUAGCGCUGGAAUUCUCGGGUGCCAA: 0.546
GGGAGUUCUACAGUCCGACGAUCGAGGCAUUUAAUACAAAACCAGGAACUCCGAAUCCAUUGCUCUUUCCUCCUUUGCUUUCACUUCUUAAGUAUAUGUGUUCUGAAGUUGAGAUGGGAGAGAUUUGAAUAUAUGGAAUUCUCGGGUGCCAA: 0.837
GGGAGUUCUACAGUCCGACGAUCAACCUGUGUUUGUAUUGGAGAUGUGUCUACUAUUGGGGGAAGAGGUUCUCGUAAUCGCUCGGUGGGAAAUCAUGGCUCUGCCGUCCUGCCUCUCUGUGGCCGUGGGUUCAUGGAAUUCUCGGGUGCCAA: 0.326

Series 3
Target: PABPC1L2, full length, GST fusion (mouse, UniProt A0ABA7IW68)
Technique: RNAcompete
Form: RNA
Matrix: in vitro
Tested at: 20 nM
Notes: 7-mer, probes averaged, single round
Baseline: mean of 7-mers
Reading: higher = stronger binding
Measurement: 7-mer Z-score
Construct (chain): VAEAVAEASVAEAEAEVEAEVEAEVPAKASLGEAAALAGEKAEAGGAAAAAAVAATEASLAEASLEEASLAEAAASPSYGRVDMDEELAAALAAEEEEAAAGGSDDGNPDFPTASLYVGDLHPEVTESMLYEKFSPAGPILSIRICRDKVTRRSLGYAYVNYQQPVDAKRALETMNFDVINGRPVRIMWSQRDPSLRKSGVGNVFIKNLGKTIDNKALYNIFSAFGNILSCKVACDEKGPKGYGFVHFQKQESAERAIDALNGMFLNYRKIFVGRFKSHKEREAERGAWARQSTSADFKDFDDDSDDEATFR
CUGCCGG: -0.199
UUUAUGG: 0.218
GCUCAGC: -0.197
UUAGAUC: -0.117
GGCUAGG: 0.278
GCCUGUG: -0.211
UGGGGGC: 0.646
UGUUCCA: -0.304
CGGUCCG: -0.253
UGACUCG: -0.242
AAGAAGU: 0.35
AUGUUCC: -0.258
CAAAAAG: 19.2
GACAAGA: 0.338
GGCCAAC: 0.129
GUAGCCU: -0.309

Series 4
Target: Prothrombin, mature alpha-thrombin (F2, Homo sapiens, UniProt P00734)
Technique: aptamer microarray, sandwich
Form: DNA with 2'F-ANA
Matrix: in vitro
Tested at: 200 nM
Notes: whole 15-mer aptamer, many near background
With: Cy3 exosite-II aptamer, 400 nM
Reading: higher = stronger binding
Measurement: mean fluorescence intensity
Oligonucleotide: GGTTGGTGTGGTTGG
2'F-ANA at 1 2 3 4 5 9 10: 44.9 a.u.
2'F-ANA at 1 4 6 7 8 9 10 14: 45 a.u.
2'F-ANA at 1 6 9: 173 a.u.
2'F-ANA at 2 3 4 5 6 8 9 11 12 14 15: 56.9 a.u.
2'F-ANA at 1 2 3 5 6 8 10 12 15: 54 a.u.
2'F-ANA at 4 8 9 10 12 14: 77.1 a.u.
2'F-ANA at 1 5 6 12 14 15: 50.3 a.u.
2'F-ANA at 1 2 7 9 14 15: 61.7 a.u.
2'F-ANA at 2 3 4 9 10 11: 256 a.u.
2'F-ANA at 2 3 4 6 11 12 13 15: 543 a.u.
2'F-ANA at 1 3 4 7 8 10 11 12 14 15: 56.9 a.u.
2'F-ANA at 1 3 6 9 10 13 14 15: 100 a.u.
2'F-ANA at 2 5 6 8 9 12 14 15: 60.4 a.u.
2'F-ANA at 1 2 4 6 7 8 10 15: 68 a.u.
2'F-ANA at 2 5 6 7 9 10 12 13 14 15: 138 a.u.
2'F-ANA at 3 4 5 6 7 9 10 11 15: 51.8 a.u.
2'F-ANA at 1 2 3 4 5 8 9 13 15: 52 a.u.
2'F-ANA at 2 4 5 8 10 12 13 14: 43.4 a.u.
2'F-ANA at 1 3 4 6 13 14 15: 89.6 a.u.
2'F-ANA at 1 2 3 4 5 8 13: 60.6 a.u.
2'F-ANA at 3 6 9 12 13 15: 954 a.u.
2'F-ANA at 5 6 7 8 11: 71.9 a.u.
2'F-ANA at 2 7 10 12 13 14: 89.2 a.u.
2'F-ANA at 1 3 6 7 8 12 15: 616 a.u.
2'F-ANA at 1 6 9 10 11 14 15: 46.3 a.u.

Series 5
Target: Sal-like protein 4, full length isoform A (SALL4, Homo sapiens, UniProt Q9UJQ4, residues 1-1053)
Chain of UniProt Q9UJQ4 (whole entry, looked up): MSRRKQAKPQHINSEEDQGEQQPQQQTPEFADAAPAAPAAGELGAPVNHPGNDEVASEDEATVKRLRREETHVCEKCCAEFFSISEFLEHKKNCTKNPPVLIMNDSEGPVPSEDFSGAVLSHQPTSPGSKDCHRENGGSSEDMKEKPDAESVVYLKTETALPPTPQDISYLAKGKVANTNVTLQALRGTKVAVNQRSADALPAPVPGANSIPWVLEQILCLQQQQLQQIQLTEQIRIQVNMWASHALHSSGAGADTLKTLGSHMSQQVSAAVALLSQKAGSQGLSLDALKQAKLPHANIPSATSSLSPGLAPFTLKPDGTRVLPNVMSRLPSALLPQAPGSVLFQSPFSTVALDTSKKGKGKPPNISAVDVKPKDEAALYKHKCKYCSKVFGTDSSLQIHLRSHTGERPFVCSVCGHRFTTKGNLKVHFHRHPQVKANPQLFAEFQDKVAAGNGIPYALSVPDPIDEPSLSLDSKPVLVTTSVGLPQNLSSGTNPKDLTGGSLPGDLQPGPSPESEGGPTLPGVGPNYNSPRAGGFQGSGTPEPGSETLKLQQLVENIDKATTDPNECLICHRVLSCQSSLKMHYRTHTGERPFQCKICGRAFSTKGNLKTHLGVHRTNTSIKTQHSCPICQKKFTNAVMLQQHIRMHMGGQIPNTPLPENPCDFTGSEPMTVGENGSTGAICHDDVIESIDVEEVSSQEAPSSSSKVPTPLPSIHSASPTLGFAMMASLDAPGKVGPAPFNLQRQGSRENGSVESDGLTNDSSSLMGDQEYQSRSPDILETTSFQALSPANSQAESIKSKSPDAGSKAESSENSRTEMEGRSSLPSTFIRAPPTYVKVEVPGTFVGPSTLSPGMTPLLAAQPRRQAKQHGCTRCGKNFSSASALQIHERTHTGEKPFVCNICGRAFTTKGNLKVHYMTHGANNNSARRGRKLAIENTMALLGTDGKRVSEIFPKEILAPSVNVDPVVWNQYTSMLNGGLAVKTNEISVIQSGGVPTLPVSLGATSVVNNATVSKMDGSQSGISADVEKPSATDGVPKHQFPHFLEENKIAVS
Technique: universal PBM
Form: double-stranded DNA, one strand shown
Matrix: in vitro
Tested at: 600 nM
Notes: 8-mer, flanks averaged, mean of replicates
Reading: higher = stronger binding
Measurement: E-score
TCGGTAGA: 0.0402
AACTACAG: -0.0416
ATCGATTA: 0.175
ATGTGGGG: -0.0592
CCTCATCA: 0.0735
ATACTCGC: -0.0079
ACTTAGGA: 0.0224
CTGCCCCA: -0.224
CAATTGTC: 0.0871
CCCTACGC: -0.253
ACATACTC: 0.137
AGTCTACG: -0.051
AATGGCGT: -0.156
ATGCGAAC: 0.0388
CAACTGCG: -0.251
ACAGAGAG: -0.0535
CTGTCGCA: -0.123
AGGAGAAT: 0.0301
CCGTGCGC: -0.356
ACGGTGCC: -0.346
ACACAGAC: 0.0364
CTCCCTCC: -0.266
CTAGAACC: -0.183
ACTACTCC: -0.0711
GAGGGGGA: -0.252

Series 6
Target: CCNB2, cyclin fold, Cln2 fusion (human)
Technique: yeast growth competition, sequencing
Matrix: yeast
Notes: strong parent motif
Baseline: not given
Reading: higher = stronger binding
Measurement: normalised enrichment score
Starting sequence: PKMYT1 docking peptide (human); SFEPRNLLSLFED; partner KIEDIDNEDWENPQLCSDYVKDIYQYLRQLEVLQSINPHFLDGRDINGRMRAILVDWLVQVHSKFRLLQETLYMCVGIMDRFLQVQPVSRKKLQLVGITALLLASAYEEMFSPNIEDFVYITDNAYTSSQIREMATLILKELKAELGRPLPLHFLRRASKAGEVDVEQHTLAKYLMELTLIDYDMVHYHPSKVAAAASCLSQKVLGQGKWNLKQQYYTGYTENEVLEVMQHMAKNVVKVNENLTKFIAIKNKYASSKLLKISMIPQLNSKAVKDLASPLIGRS
F2G: 0.107
N6Y: -0.527
F11L: 0.126
N6R: 0.336
L7D: -0.613
L10P: -1.13
P4V: 0.273
R5A: 0.878
F2W: 0.441
E12V: 0.283
F11T: -0.426
L7H: -0.208
L7N: -0.451
R5Q: 0.857
L8A: 0.897
R5N: -0.0777
P4T: -0.17

For quick reference, copied from above (series 6):
N6Y: -0.527
E12V: 0.283
P4T: -0.17
L8A: 0.897
F2G: 0.107
R5A: 0.878
F11T: -0.426
L10P: -1.13
F2W: 0.441
N6R: 0.336
P4V: 0.273
R5N: -0.0777
L7H: -0.208
F11L: 0.126
L7N: -0.451
